Results gathered from unrelated publications.
Parts stem from different laboratories: compare values within a part only.
Sequence of UniProt Q9H3Y6 (whole entry, looked up): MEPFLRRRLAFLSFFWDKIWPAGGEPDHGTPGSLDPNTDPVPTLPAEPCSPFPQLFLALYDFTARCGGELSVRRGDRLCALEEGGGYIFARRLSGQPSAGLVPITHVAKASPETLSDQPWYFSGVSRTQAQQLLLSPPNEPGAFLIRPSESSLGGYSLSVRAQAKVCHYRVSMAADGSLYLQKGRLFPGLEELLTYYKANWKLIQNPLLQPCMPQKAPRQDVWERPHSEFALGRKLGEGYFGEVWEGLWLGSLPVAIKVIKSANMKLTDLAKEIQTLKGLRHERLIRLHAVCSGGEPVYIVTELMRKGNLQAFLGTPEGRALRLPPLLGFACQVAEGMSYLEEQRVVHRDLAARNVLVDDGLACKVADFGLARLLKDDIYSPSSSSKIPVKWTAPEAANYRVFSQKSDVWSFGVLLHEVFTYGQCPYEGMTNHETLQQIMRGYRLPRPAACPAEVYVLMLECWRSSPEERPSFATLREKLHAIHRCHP
Sequence of UniProt P51451 (whole entry, looked up): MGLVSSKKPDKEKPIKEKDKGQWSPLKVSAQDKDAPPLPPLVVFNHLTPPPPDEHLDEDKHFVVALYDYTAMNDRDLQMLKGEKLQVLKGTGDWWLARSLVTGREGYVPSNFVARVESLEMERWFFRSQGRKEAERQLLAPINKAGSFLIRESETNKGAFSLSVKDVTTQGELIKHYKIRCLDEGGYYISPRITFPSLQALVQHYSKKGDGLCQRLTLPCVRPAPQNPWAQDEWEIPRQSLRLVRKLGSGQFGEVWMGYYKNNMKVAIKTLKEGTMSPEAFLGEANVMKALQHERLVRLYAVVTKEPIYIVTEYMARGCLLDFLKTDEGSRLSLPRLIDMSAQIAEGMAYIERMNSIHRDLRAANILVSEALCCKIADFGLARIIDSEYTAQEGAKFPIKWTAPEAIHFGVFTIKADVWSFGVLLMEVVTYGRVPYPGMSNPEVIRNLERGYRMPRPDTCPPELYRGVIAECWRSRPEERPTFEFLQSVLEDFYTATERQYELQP
Sequence of UniProt O14733 (whole entry, looked up): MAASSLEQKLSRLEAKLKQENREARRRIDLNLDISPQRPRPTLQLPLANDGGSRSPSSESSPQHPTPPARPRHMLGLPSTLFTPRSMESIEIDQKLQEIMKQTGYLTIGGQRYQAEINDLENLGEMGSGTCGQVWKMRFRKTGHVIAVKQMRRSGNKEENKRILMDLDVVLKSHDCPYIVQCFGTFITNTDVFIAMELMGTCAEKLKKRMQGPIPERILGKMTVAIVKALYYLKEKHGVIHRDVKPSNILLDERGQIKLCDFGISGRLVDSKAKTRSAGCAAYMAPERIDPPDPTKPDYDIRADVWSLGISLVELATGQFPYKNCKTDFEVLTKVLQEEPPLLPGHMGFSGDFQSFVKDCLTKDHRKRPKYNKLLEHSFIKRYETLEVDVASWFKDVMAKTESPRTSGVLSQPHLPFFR
Sequence of UniProt Q8IVW4 (whole entry, looked up): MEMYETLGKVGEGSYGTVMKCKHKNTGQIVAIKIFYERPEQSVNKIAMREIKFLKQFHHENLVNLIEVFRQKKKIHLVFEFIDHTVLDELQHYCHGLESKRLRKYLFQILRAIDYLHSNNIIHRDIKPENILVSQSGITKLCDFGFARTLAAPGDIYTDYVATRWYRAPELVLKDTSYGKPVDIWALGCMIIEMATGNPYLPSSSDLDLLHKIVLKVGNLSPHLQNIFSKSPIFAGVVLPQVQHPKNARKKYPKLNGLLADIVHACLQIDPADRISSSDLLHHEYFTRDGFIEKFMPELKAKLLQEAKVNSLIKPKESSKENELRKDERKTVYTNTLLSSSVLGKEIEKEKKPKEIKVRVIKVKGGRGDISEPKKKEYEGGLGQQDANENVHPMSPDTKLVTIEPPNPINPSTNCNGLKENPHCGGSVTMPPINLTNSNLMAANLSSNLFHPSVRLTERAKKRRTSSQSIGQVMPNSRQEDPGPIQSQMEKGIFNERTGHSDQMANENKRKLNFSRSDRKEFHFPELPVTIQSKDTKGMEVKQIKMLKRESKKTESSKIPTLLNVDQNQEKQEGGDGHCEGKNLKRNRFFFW
Sequence of UniProt Q16644 (whole entry, looked up): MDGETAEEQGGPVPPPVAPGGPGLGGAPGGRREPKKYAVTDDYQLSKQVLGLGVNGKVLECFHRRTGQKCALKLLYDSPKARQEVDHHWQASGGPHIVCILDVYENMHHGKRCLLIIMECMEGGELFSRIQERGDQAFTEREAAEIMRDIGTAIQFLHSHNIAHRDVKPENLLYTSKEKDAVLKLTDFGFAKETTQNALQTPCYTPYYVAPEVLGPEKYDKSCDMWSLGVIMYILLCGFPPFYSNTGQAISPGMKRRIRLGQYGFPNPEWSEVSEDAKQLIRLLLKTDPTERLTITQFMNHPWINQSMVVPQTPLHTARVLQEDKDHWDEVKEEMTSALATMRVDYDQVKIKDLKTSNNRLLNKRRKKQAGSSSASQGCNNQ
Sequence of UniProt O15530 (whole entry, looked up): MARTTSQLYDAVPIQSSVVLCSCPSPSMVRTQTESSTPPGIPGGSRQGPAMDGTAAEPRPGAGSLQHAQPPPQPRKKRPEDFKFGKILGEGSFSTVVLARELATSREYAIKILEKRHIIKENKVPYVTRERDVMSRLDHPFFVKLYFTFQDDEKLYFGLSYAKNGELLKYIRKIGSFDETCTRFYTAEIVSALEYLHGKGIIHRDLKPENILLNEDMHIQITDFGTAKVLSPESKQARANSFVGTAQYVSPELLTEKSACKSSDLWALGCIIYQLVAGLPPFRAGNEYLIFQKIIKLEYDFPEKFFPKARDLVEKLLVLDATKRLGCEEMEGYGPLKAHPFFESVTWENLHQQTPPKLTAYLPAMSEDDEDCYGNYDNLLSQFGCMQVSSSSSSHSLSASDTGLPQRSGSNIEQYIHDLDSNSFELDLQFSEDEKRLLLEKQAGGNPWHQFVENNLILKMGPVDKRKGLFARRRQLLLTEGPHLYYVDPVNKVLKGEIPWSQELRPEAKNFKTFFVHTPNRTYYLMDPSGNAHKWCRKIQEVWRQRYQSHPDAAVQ
Sequence of UniProt O94768 (whole entry, looked up): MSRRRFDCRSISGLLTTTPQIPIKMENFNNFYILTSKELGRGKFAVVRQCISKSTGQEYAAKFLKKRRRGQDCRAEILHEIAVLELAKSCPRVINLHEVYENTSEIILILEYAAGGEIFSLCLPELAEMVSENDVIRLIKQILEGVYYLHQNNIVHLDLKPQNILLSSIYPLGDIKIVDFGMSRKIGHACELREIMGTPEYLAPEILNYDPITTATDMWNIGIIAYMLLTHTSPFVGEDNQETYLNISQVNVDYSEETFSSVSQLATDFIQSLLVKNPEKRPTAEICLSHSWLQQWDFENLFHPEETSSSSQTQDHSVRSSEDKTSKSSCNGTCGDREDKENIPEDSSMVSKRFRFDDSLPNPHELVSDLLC
Sequence of UniProt Q96PF2 (whole entry, looked up): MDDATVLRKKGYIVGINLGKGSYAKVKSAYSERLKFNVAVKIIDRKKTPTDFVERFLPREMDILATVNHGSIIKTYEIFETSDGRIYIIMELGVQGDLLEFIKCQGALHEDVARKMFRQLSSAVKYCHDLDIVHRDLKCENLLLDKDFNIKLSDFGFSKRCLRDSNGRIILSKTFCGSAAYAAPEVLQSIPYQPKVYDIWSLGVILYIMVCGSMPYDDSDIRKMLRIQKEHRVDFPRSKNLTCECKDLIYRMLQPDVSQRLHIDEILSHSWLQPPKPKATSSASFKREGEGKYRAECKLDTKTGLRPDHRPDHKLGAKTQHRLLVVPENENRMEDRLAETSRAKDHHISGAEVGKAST
Sequence of UniProt Q16513 (whole entry, looked up): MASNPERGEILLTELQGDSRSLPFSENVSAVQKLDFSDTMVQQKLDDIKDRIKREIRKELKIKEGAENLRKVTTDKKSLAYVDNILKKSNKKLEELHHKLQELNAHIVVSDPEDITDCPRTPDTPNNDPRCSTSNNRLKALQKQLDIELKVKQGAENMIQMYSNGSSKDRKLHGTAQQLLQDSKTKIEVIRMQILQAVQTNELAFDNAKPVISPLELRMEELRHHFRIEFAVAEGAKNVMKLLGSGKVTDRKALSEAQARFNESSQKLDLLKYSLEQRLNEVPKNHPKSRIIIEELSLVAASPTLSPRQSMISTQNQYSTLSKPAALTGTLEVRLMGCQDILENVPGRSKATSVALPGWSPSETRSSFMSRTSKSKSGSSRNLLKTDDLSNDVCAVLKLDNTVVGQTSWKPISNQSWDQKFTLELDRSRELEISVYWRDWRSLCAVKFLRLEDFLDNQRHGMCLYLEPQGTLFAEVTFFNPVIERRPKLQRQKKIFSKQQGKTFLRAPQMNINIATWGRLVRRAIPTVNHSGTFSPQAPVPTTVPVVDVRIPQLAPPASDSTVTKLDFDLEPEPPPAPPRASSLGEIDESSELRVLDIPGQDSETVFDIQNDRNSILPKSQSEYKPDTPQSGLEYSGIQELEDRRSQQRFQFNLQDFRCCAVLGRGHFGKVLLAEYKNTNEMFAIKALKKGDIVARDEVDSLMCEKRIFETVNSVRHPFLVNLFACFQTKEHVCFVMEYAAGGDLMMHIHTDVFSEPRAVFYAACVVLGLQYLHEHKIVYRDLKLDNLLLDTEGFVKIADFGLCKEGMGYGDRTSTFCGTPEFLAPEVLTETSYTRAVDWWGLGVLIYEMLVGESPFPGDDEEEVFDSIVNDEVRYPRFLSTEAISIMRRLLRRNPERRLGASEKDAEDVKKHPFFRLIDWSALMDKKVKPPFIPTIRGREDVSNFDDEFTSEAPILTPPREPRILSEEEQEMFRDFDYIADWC
Sequence of UniProt Q00534 (whole entry, looked up): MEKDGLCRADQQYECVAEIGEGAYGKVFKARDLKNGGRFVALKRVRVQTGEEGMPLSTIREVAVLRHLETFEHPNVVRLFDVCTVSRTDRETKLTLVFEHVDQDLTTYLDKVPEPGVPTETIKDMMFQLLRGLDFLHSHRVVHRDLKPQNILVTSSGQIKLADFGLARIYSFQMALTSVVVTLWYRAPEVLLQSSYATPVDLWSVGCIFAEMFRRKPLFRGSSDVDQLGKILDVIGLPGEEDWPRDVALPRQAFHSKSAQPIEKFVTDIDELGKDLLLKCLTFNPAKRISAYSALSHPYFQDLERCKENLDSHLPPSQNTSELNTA

Study 1
SMILES: COc1ccc2[nH]c3c4[nH]c5ccc(OC)cc5c4c4c(c3c2c1)C(=O)NC4=O
Effect on: binding
Concentration: 1 µM
| target | method | remaining binding |
| --- | --- | --- |
| Mast/stem cell growth factor receptor Kit (KIT, Homo sapiens, UniProt P10721, L576P) |  | 8.2% |
| Tyrosine-protein kinase CSK (CSK, Homo sapiens, UniProt P41240) | competition with immobilised ligand | 95% |
| Cyclin-dependent kinase 15 (CDK15, Homo sapiens, UniProt Q96Q40) | competition with immobilised ligand | 91% |
| Serine/threonine-protein kinase N2 (PKN2, Homo sapiens, UniProt Q16513) |  | 52% |
| Serine/threonine-protein kinase 33 (STK33, Homo sapiens, UniProt Q9BYT3) | competition with immobilised ligand | 33% |
| Tyrosine-protein kinase Lyn (LYN, Homo sapiens, UniProt P07948) | competition with immobilised ligand | 69% |
| Tyrosine-protein kinase Srms (SRMS, Homo sapiens, UniProt Q9H3Y6) | competition with immobilised ligand | 100% |
| Receptor-type tyrosine-protein kinase FLT3 (FLT3, Homo sapiens, UniProt P36888, D835H) |  | 12% |

Study 2
SMILES: CC#CC(=O)Nc1cc2c(Nc3ccc(F)c(Cl)c3)ncnc2cn1
Effect on: enzyme activity
Mode: inhibitor
Concentration: 0.5 µM
Relative to: control
| target | remaining activity [%] |
| --- | --- |
| Homeodomain-interacting protein kinase 4 (HIPK4, Homo sapiens, UniProt Q8NE63) | 99.7 |
| Ribosomal protein S6 kinase alpha-5 (RPS6KA5, Homo sapiens, UniProt O75582) | 103 |
| Serine/threonine-protein kinase 16 (STK16, Homo sapiens, UniProt O75716) | 104 |
| Ephrin type-B receptor 4 (EPHB4, Homo sapiens, UniProt P54760) | 83.4 |
| Tyrosine-protein kinase receptor UFO (AXL, Homo sapiens, UniProt P30530) | 100 |
| Cyclin-dependent kinase 6, with cyclin D3 (CDK6, Homo sapiens, UniProt Q00534) | 103 |
| Dual specificity tyrosine-phosphorylation-regulated kinase 3 (DYRK3, Homo sapiens, UniProt O43781) | 101 |
| Mitogen-activated protein kinase kinase kinase kinase 4 (MAP4K4, Homo sapiens, UniProt O95819) | 110 |
| Ephrin type-B receptor 1 (EPHB1, Homo sapiens, UniProt P54762) | 92 |
| Cyclin-dependent kinase 4, with cyclin D3 (CDK4, Homo sapiens, UniProt P11802) | 105 |
| 3-phosphoinositide-dependent protein kinase 1 (PDPK1, Homo sapiens, UniProt O15530) | 99.6 |
| Testis-specific serine/threonine-protein kinase 2 (TSSK2, Homo sapiens, UniProt Q96PF2) | 100 |
| Serine/threonine-protein kinase 17A (STK17A, Homo sapiens, UniProt Q9UEE5) | 92.9 |
| Calcium/calmodulin-dependent protein kinase type II subunit beta (CAMK2B, Homo sapiens, UniProt Q13554) | 99.6 |
| Serine/threonine-protein kinase WNK3 (WNK3, Homo sapiens, UniProt Q9BYP7) | 95.1 |
| Tyrosine-protein kinase Srms (SRMS, Homo sapiens, UniProt Q9H3Y6) | 96.1 |
| MAP kinase-activated protein kinase 3 (MAPKAPK3, Homo sapiens, UniProt Q16644) | 105 |
| Ribosomal protein S6 kinase alpha-6 (RPS6KA6, Homo sapiens, UniProt Q9UK32) | 95.3 |
| Tyrosine-protein kinase Blk (BLK, Homo sapiens, UniProt P51451) | 21.3 |
| Homeodomain-interacting protein kinase 2 (HIPK2, Homo sapiens, UniProt Q9H2X6) | 101 |
| Phosphorylase b kinase gamma catalytic chain, skeletal muscle/heart isoform (PHKG1, Homo sapiens, UniProt Q16816) | 103 |
| Cyclin-dependent kinase 1, with cyclin B (CDK1, Homo sapiens, UniProt P06493) | 99.5 |
| Ephrin type-A receptor 4 (EPHA4, Homo sapiens, UniProt P54764) | 94.6 |

Study 3
SMILES: C[C@H](c1cccc(C#N)c1)n1cc(Cl)cc(C(N)=O)c1=N
Concentration: 1 µM
| target | effect on | method | remaining binding [%] |
| --- | --- | --- | --- |
| Mitogen-activated protein kinase kinase kinase 13 (MAP3K13, Homo sapiens, UniProt O43283) | cell-free assay | competition with immobilised ligand | 97 |
| Tyrosine-protein kinase SYK (SYK, Homo sapiens, UniProt P43405) | cell-free assay | competition with immobilised ligand | 100 |
| Serine/threonine-protein kinase PAK 2 (PAK2, Homo sapiens, UniProt Q13177) | cell-free assay | competition with immobilised ligand | 100 |
| Megakaryocyte-associated tyrosine-protein kinase (MATK, Homo sapiens, UniProt P42679) | cell-free assay | competition with immobilised ligand | 100 |
| Receptor-type tyrosine-protein kinase FLT3 (FLT3, Homo sapiens, UniProt P36888, D835Y) | cell-free assay | competition with immobilised ligand | 96 |
| ALK tyrosine kinase receptor (ALK, Homo sapiens, UniProt Q9UM73, C1156Y) | cell-free assay | competition with immobilised ligand | 89 |
| Cyclin-dependent kinase 19 (CDK19, Homo sapiens, UniProt Q9BWU1) |  | competition binding | 89 |
| Interferon-induced, double-stranded RNA-activated protein kinase (EIF2AK2, Homo sapiens, UniProt P19525) | cell-free assay | competition with immobilised ligand | 100 |
| Cyclin-dependent kinase-like 3 (CDKL3, Homo sapiens, UniProt Q8IVW4) | cell-free assay | competition with immobilised ligand | 88 |
| Serine/threonine-protein kinase PRP4 homolog (PRPF4B, Homo sapiens, UniProt Q13523) | cell-free assay | competition with immobilised ligand | 93 |
| Serine/threonine-protein kinase 17B (STK17B, Homo sapiens, UniProt O94768) | cell-free assay | competition with immobilised ligand | 73 |
| Serine/threonine-protein kinase D3 (PRKD3, Homo sapiens, UniProt O94806) | cell-free assay | competition with immobilised ligand | 65 |
| Dual specificity mitogen-activated protein kinase kinase 7 (MAP2K7, Homo sapiens, UniProt O14733) | cell-free assay | competition with immobilised ligand | 72 |
| Serine/threonine-protein kinase mTOR (MTOR, Homo sapiens, UniProt P42345) | cell-free assay | competition with immobilised ligand | 91 |
| Serine/threonine-protein kinase SIK1 (SIK1, Homo sapiens, UniProt P57059) |  | competition binding | 100 |
| Atypical kinase COQ8A, mitochondrial (COQ8A, Homo sapiens, UniProt Q8NI60) | cell-free assay | competition with immobilised ligand | 88 |

Study 4
Method: linear regression of PRP log k'
| SMILES | logD (1,9-decadiene/water) |
| --- | --- |
| CCCCOc1ccc(-c2ccc(C(=O)NCCCCCC(=O)N[C@H](C(=O)N3C[C@H](O)C[C@H]3C(=O)NCc3ccc(-c4scnc4C)cc3)C(C)(C)C)cc2)cc1 | 1.25 |
| Cc1ncsc1-c1ccc(CNC(=O)[C@@H]2C[C@@H](O)CN2C(=O)[C@@H](NC(=O)CCCCCNC(=O)CC23C[C@H]4C[C@@H](C2)C[C@@H](C3)C4)C(C)(C)C)cc1 | -0.666 |
| Cc1ncsc1-c1ccc(CNC(=O)[C@@H]2C[C@@H](O)CN2C(=O)[C@@H](NC(=O)CCCCCOC(=O)CC(c2ccccc2)c2ccccc2)C(C)(C)C)cc1 | 0.955 |
| COCC(=O)OCCCCCC(=O)N[C@H](C(=O)N1C[C@H](O)C[C@H]1C(=O)NCc1ccc(-c2scnc2C)cc1)C(C)(C)C | -2.51 |

A few entries again (study 3):
| target | effect on | method | remaining binding [%] |
| --- | --- | --- | --- |
| Serine/threonine-protein kinase PAK 2 (PAK2, Homo sapiens, UniProt Q13177) | cell-free assay | competition with immobilised ligand | 100 |
| Receptor-type tyrosine-protein kinase FLT3 (FLT3, Homo sapiens, UniProt P36888, D835Y) | cell-free assay | competition with immobilised ligand | 96 |
| Serine/threonine-protein kinase 17B (STK17B, Homo sapiens, UniProt O94768) | cell-free assay | competition with immobilised ligand | 73 |
| ALK tyrosine kinase receptor (ALK, Homo sapiens, UniProt Q9UM73, C1156Y) | cell-free assay | competition with immobilised ligand | 89 |
